Experimental data of several laboratories.
Lines come from different studies, so protocols differ. ± gives the spread as reported.
Chymotrypsin-C S216A: Chymotrypsin-C (Homo sapiens, UniProt Q99895, S216A)
UniProt Q99895, sequence (whole entry, unmodified, looked up): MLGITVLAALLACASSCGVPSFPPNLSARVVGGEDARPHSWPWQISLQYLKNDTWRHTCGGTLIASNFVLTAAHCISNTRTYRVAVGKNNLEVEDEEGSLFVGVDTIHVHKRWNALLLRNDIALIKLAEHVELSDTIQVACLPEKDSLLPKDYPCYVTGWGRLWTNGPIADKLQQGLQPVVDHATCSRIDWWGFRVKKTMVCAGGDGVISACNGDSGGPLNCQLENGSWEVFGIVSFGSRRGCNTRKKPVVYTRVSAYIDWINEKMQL
14-3-3 protein epsilon: 14-3-3 protein epsilon (Homo sapiens, UniProt P62258)
UniProt P62258, sequence (whole entry, looked up): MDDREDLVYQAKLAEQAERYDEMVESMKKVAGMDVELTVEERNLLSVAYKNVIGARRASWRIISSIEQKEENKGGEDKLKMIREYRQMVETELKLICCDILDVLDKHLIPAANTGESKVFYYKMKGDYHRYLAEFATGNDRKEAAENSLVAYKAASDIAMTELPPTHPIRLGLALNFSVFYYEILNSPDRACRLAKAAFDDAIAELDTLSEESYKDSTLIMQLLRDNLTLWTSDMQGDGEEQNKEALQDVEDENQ
Magi2: Membrane-associated guanylate kinase, WW and PDZ domain-containing protein 2 (Magi2, Mus musculus, UniProt Q9WVQ1)
UniProt Q9WVQ1, sequence (whole entry, looked up): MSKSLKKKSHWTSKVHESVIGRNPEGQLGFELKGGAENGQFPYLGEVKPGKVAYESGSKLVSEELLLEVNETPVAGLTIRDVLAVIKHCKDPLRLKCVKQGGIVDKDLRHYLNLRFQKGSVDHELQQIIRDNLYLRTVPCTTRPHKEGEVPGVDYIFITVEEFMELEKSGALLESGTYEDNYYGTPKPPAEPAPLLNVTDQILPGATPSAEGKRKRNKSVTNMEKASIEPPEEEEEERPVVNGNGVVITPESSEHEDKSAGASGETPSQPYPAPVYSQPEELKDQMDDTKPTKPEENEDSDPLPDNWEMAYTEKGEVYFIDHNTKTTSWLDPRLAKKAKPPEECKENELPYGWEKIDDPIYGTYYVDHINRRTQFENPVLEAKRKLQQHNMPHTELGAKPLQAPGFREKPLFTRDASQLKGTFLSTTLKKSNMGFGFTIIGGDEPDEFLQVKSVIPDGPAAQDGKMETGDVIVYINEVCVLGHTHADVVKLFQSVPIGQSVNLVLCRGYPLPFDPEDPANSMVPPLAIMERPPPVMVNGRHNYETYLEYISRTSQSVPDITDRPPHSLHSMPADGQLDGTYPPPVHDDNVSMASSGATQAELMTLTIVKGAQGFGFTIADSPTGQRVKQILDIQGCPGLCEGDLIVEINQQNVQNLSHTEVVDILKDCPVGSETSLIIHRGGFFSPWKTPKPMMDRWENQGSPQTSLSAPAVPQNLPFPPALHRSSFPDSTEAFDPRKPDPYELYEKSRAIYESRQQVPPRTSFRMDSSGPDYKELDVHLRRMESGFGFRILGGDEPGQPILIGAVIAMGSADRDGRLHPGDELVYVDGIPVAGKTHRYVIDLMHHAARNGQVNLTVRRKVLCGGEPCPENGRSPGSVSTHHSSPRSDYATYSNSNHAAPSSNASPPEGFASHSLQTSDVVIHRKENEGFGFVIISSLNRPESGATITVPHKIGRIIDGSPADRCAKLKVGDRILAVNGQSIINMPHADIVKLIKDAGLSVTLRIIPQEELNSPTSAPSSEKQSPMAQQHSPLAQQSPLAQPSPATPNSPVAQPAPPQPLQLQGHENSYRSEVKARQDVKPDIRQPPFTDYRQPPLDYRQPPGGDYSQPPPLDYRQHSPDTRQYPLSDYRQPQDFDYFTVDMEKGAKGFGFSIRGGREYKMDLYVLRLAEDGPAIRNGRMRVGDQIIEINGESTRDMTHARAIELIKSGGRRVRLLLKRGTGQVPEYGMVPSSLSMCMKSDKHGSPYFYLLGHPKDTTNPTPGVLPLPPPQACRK
UniProt Q16512, sequence (whole entry, looked up): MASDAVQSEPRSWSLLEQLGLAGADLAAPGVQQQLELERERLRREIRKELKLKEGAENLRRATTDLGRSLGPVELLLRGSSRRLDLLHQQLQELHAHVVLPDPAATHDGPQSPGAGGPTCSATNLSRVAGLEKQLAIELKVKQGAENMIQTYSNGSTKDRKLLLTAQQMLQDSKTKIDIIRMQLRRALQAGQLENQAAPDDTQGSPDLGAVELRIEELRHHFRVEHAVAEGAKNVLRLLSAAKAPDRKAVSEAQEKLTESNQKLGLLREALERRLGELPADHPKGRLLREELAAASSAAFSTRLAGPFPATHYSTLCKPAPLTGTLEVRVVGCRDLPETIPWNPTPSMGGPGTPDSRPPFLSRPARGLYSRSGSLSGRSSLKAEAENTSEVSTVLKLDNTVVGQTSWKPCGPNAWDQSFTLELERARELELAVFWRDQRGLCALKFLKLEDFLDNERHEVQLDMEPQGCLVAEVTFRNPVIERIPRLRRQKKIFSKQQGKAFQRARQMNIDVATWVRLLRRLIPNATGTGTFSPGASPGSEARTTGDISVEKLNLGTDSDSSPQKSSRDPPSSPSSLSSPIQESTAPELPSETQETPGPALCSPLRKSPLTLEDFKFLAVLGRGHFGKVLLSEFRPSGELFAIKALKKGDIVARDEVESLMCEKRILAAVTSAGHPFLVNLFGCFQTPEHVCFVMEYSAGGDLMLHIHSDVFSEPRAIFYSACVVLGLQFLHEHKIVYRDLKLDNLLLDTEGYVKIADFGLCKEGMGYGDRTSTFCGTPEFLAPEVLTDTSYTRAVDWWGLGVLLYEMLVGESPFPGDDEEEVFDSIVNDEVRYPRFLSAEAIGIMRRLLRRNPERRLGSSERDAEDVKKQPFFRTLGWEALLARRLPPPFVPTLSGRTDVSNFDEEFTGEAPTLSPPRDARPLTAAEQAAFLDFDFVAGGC
UniProt Q9UI08, sequence (whole entry, looked up): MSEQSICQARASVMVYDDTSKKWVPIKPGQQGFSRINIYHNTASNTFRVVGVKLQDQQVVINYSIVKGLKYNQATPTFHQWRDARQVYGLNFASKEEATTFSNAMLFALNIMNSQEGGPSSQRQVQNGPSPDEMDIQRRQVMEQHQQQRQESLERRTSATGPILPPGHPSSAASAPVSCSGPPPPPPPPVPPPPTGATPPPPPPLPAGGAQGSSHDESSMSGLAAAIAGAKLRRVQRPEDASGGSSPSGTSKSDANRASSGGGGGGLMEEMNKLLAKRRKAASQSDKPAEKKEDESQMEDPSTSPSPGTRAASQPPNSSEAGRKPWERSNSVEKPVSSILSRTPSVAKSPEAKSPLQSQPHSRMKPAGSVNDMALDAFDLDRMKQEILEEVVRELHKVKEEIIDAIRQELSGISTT
UniProt Q9H4B4, sequence (whole entry, looked up): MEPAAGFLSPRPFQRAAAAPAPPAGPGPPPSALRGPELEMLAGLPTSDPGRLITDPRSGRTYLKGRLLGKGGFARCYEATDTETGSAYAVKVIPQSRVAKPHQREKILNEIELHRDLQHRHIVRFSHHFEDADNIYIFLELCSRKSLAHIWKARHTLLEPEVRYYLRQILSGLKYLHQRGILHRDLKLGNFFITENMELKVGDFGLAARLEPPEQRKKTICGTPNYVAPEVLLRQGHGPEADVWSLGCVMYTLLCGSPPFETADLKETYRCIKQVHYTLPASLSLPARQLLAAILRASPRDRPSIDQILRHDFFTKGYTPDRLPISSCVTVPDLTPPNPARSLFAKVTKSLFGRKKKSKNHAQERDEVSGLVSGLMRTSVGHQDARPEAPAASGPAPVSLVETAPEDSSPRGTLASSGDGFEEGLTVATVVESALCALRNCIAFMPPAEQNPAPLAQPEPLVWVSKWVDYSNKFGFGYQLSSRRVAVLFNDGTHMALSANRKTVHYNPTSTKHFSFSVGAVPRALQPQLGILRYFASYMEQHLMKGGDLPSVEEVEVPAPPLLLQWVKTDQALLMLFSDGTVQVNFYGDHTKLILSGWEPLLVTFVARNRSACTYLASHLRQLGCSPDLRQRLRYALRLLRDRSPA
UniProt P42680, sequence (whole entry, looked up): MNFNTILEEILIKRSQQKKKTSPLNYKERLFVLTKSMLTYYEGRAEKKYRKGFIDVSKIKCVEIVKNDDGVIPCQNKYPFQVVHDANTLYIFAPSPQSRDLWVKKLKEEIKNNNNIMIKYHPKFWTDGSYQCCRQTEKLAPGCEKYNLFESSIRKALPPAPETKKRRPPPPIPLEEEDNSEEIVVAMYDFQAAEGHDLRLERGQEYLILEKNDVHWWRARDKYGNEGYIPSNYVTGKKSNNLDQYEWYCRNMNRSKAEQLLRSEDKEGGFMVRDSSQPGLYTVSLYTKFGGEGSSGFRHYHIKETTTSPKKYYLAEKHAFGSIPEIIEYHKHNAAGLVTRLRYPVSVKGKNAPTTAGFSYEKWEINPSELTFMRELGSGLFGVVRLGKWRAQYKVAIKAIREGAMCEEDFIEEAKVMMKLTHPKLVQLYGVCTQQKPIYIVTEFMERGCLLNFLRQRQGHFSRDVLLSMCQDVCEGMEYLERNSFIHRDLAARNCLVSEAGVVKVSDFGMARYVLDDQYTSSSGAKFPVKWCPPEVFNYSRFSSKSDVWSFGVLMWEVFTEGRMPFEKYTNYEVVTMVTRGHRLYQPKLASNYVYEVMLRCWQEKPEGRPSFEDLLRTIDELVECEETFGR
UniProt O95619, sequence (whole entry, looked up): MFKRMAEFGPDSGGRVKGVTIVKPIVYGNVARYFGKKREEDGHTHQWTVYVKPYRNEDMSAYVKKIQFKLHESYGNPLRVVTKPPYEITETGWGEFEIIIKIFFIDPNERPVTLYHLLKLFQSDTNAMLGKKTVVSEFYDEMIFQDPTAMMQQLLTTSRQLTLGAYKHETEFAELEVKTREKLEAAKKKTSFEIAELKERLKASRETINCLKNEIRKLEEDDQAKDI

Compound | target | assay | conditions | Kd [nM]
CSCC[C@H](NC(=O)CNC(=O)[C@H](CCCNC(=N)N)NC(=O)[C@H](C)NC(=O)[C@@H](NC(=O)[C@H](CCC(N)=O)NC(=O)[C@H](Cc1ccc(OP(=O)(O)O)cc1)NC(=O)[C@H](C)NC(=O)[C@H](CS)NC(=O)[C@H](CO)NC(=O)[C@@H](NC(=O)[C@H](CC(C)C)NC(=O)[C@H](CC(=O)O)NC(=O)[C@H](CCCCN)NC(=O)[C@H](CO)NC(=O)[C@H](CO)NC(=O)c1ccc2c(c1)C(=O)OC21c2ccc(N(C)C)cc2Oc2cc(N(C)C)ccc21)C(C)C)C(C)C)C(=O)N[C@@H](CCC(=O)O)C(=O)N[C@@H](CC(=O)O)C(=O)O | Tyrosine-protein kinase Tec, SH2 domain (TEC, Homo sapiens, UniProt P42680) | binding | – | 354
O=C(N[C@@H]1c2ccccc2C[C@H]1N1CCCC1)c1ccc(-c2ccnc3[nH]ccc23)nc1 | PKN1 (Homo sapiens, UniProt Q16512) | binding, competition with immobilised ligand | – | 520
CC(=O)NCCCC[C@H](NC(=O)[C@@H](NC(=O)CNC(=O)CNC(=O)[C@@H](NC(=O)[C@H](C)N)[C@@H](C)O)C(C)C)C(=O)N[C@@H](CCCCN)C(=O)N1CCC[C@H]1C(=O)N[C@@H](Cc1c[nH]cn1)C(=O)N[C@@H](CCCNC(=N)N)C(=O)N[C@@H](Cc1ccc(O)cc1)C(=O)O | YEATS domain-containing protein 4, YEATS domain (Homo sapiens, UniProt O95619) | isothermal titration calorimetry | pH 7.6, 25 °C, added: histone peptide | 460000
CSCC[C@@H]1NC(=O)[C@H](CC(C)C)NC(=O)[C@H]([C@@H](C)O)NC(=O)[C@@H]2CSSC[C@@H]3NC(=O)[C@H]([C@@H](C)O)NC(=O)[C@H](CC(N)=O)NC(=O)[C@H](CSSC[C@@H](C(=O)N[C@@H](CC(=O)O)C(=O)N[C@@H](CCC(N)=O)C(=O)O)NC(=O)[C@H](CC(C)C)NC1=O)NC(=O)[C@H](CCCCN)NC(=O)[C@H](CC(=O)O)NC(=O)[C@H](CCCCN)NC(=O)[C@H](Cc1ccccc1)NC(=O)[C@H]([C@@H](C)O)NC(=O)[C@H]([C@@H](C)O)NC(=O)CNC(=O)[C@@H]1CCCN1C(=O)[C@H](CCC(=O)O)NC(=O)[C@@H](NC(=O)[C@@H](NC(=O)[C@@H](NC(=O)[C@H](CCC(=O)O)NC(=O)[C@H](CO)NC(=O)CN)C(C)C)[C@@H](C)O)CSSC[C@H](NC(=O)[C@H](CCCNC(=N)N)NC3=O)C(=O)NCC(=O)N[C@@H](CO)C(=O)N[C@@H](CC(=O)O)C(=O)NCC(=O)N[C@@H](CCCCN)C(=O)N[C@@H](CO)C(=O)N[C@@H](C)C(=O)N[C@@H](Cc1ccc(O)cc1)C(=O)N2 | Chymotrypsin-C S216A | competitive fluorescence polarization | 24 h, pH 8.0, added: FITC-labelled tracer | 0.72 ± 0.1
CC(C)C[C@H](NC(=O)[C@H](CCP(=O)(O)O)NC(=O)[C@@H](NC(=O)[C@@H](NC(=O)[C@H](CCCNC(=N)N)NC(=O)[C@H](CC(C)C)NC(=O)[C@H](CO)NC(=S)Nc1ccc2c(c1)C(=O)OC21c2ccc(O)cc2Oc2cc(O)ccc21)[C@@H](C)O)C(C)C)C(=O)NCC(=O)N[C@@H](C)C(=O)NCC(=O)N[C@@H](C)C(=O)N[C@@H](Cc1c[nH]c2ccccc12)C(=O)N[C@@H](CC(C)C)C(=O)N[C@H](C(=O)N1CCC[C@H]1C(=O)N[C@@H](CCCNC(=N)N)C(=O)O)C(C)C | 14-3-3 protein epsilon | binding, fluorescence anisotropy | pH 7.5, FITC-labelled phosphopeptide titration | 56200
CC(C)C[C@@H]1NC(=O)[C@H](CC(C)C)NC(=O)[C@H](CC(C)C)NC(=O)[C@H]([C@@H](C)O)NC(=O)[C@@H]2CSSC[C@@H]3NC(=O)[C@H]([C@@H](C)O)NC(=O)[C@H](CC(N)=O)NC(=O)[C@H](CSSC[C@@H](C(=O)N[C@H](C(=O)N[C@@H](CCC(N)=O)C(=O)O)C(C)C)NC1=O)NC(=O)[C@H](CCCCN)NC(=O)[C@H](CC(=O)O)NC(=O)[C@H](CCCCN)NC(=O)[C@H](Cc1ccccc1)NC(=O)[C@H]([C@@H](C)O)NC(=O)[C@H]([C@@H](C)O)NC(=O)CNC(=O)[C@@H]1CCCN1C(=O)[C@H](CCC(=O)O)NC(=O)[C@@H](NC(=O)[C@@H](NC(=O)[C@@H](NC(=O)[C@H](CCC(=O)O)NC(=O)[C@H](CO)NC(=O)CN)C(C)C)[C@@H](C)O)CSSC[C@H](NC(=O)[C@H](CCCNC(=N)N)NC3=O)C(=O)NCC(=O)N[C@@H](CO)C(=O)N[C@@H](CC(=O)O)C(=O)NCC(=O)N[C@@H](CCCCN)C(=O)N[C@@H](CO)C(=O)N[C@@H](C)C(=O)N[C@@H](Cc1c[nH]c3ccccc13)C(=O)N2 | Chymotrypsin-C S216A | competitive fluorescence polarization | 24 h, pH 8.0, added: FITC-labelled tracer | 23.1 ± 3.16
CC(C)C[C@H](NC(=O)[C@H](CO)NC(=O)[C@@H]1CCCN1C(=O)[C@H](CCC(N)=O)NC(=O)[C@@H](NC(=O)[C@H](C)NC(=O)[C@H](CCCCN)NC(=O)[C@H](CC(C)C)NC(=O)[C@H](Cc1ccc(O)cc1)NC(=O)[C@H](COP(=O)(O)O)NC(=O)[C@H](CCC(=O)O)NC(=O)[C@H](CC(N)=O)NC(=O)[C@H](CCCNC(=N)N)NC(=O)[C@H](C)NC(=O)[C@H](C)N)[C@@H](C)O)C(=O)O | Magi2 | ITC | pH 8.0, 25 °C, added: tandem peptide | 60 ± 10
CC(C)C[C@H](NC(=O)[C@@H]1CCCN1C(=O)CCOCCOCCOCCOCCOCCOCCOCCOCCNC(=S)Nc1ccc2c(c1)C(=O)OC21c2ccc(O)cc2Oc2cc(O)ccc21)C(=O)N[C@@H](Cc1cncn1CCCCCCCCc1ccccc1)C(=O)N[C@@H](C)C(=O)N[C@H](C(N)=O)[C@@H](C)CP(=O)(O)O | Serine/threonine-protein kinase PLK3, polo-box domain (PLK3, Homo sapiens, UniProt Q9H4B4) | – | – | > 2560
CC(C)C[C@H](NC(=O)[C@H](CO)NC(=O)[C@@H]1CCCN1C(=O)[C@H](CCC(N)=O)NC(=O)[C@@H](NC(=O)[C@H](C)NC(=O)[C@H](CCCCN)NC(=O)[C@H](Cc1c[nH]cn1)NC(=O)[C@H](Cc1ccc(O)cc1)NC(=O)[C@H](COP(=O)(O)O)NC(=O)[C@H](CCC(=O)O)NC(=O)[C@H](CCCNC(=N)N)NC(=O)[C@H](CCCNC(=N)N)NC(=O)[C@H](C)NC(=O)[C@H](C)N)[C@@H](C)O)C(=O)O | Magi2 | ITC | pH 8.0, 25 °C, added: tandem peptide | 270 ± 70
CC(=O)NC1C(OC2C(O)C(CO)OC(O)C2OC2OC(C)C(O)C(O)C2O)OC(CO)C(O)C1O (centres unmarked) | Intermedilysin (Streptococcus intermedius, UniProt Q9LCB8) | binding | – | 9850
COc1ccc2cc1Oc1cc3c(cc1OC)CCN(C)C3Cc1ccc(cc1)Oc1c(O)c(OC)cc3c1C(C2)N(C)CC3 (centres unmarked) | Glideosome-associated protein 50 (GAP50, Plasmodium falciparum, UniProt Q8I2X3) | binding, surface plasmon resonance | 1:1 binding model | 25300
CC(=O)N[C@@H](CCCNC(=N)N)C(=O)N[C@H](C(=O)N[C@@H](CCCCN)C(=O)N[C@@H](CO)C(=O)N[C@@H](CCCNC(=N)N)C(=O)N[C@H](C(=O)N[C@@H](Cc1c[nH]c2ccccc12)C(=O)N[C@@H](C)C(=O)N[C@@H](C)C(N)=O)[C@@H](C)OP(=O)(O)O)[C@@H](C)O | 14-3-3 protein epsilon | binding, SPR | pH 7.4 | 75.4
CSCC[C@@H]1NC(=O)[C@H](CC(C)C)NC(=O)[C@H]([C@@H](C)O)NC(=O)[C@@H]2CSSC[C@@H]3NC(=O)[C@H]([C@@H](C)O)NC(=O)[C@H](CC(N)=O)NC(=O)[C@H](CSSC[C@@H](C(=O)N[C@@H](CC(=O)O)C(=O)N[C@@H](CCC(N)=O)C(=O)O)NC(=O)[C@H](CC(C)C)NC1=O)NC(=O)[C@H](CCCCN)NC(=O)[C@H](CC(=O)O)NC(=O)[C@H](CCCCN)NC(=O)[C@H](Cc1ccccc1)NC(=O)[C@H]([C@@H](C)O)NC(=O)[C@H]([C@@H](C)O)NC(=O)CNC(=O)[C@@H]1CCCN1C(=O)[C@H](CCC(=O)O)NC(=O)[C@@H](NC(=O)[C@@H](NC(=O)[C@@H](NC(=O)[C@H](CCC(=O)O)NC(=O)[C@H](CO)NC(=O)CN)C(C)C)[C@@H](C)O)CSSC[C@H](NC(=O)[C@H](CCCNC(=N)N)NC3=O)C(=O)NCC(=O)N[C@@H](CO)C(=O)N[C@@H](CC(=O)O)C(=O)NCC(=O)N[C@@H](CCCCN)C(=O)N[C@@H](CO)C(=O)N[C@@H](C)C(=O)N[C@@H](C)C(=O)N2 | Chymotrypsin-C S216A | binding, competitive fluorescence polarisation | 24 h, pH 8.0, added: FITC-labelled tracer | 0.12 ± 0.01
CC(=O)N[C@@H](CO)C(=O)N[C@@H](Cc1ccccc1)C(=O)N[C@@H](CCC(=O)O)C(=O)N[C@@H](Cc1ccccc1Cl)C(=O)N1CCC[C@]12C=C[C@@H]1CC[C@@H](C(=O)N3CC[C@@H]4C=C[C@H]5CC[C@@H](C(=O)N[C@H](C(=O)N[C@@H](CCC(=O)O)C(=O)N[C@@H](CC(=O)O)C(=O)N[C@@H](CCC(=O)O)C(=O)N[C@@H](CC(C)C)C(N)=O)[C@@H](C)O)N5C(=O)[C@H]43)N1C2=O | Ena/VASP-like protein, EVH1 domain (EVL, Homo sapiens, UniProt Q9UI08) | fluorescence titration | – | 190

Repeated from above:
Compound | target | assay | conditions | Kd [nM]
CSCC[C@@H]1NC(=O)[C@H](CC(C)C)NC(=O)[C@H]([C@@H](C)O)NC(=O)[C@@H]2CSSC[C@@H]3NC(=O)[C@H]([C@@H](C)O)NC(=O)[C@H](CC(N)=O)NC(=O)[C@H](CSSC[C@@H](C(=O)N[C@@H](CC(=O)O)C(=O)N[C@@H](CCC(N)=O)C(=O)O)NC(=O)[C@H](CC(C)C)NC1=O)NC(=O)[C@H](CCCCN)NC(=O)[C@H](CC(=O)O)NC(=O)[C@H](CCCCN)NC(=O)[C@H](Cc1ccccc1)NC(=O)[C@H]([C@@H](C)O)NC(=O)[C@H]([C@@H](C)O)NC(=O)CNC(=O)[C@@H]1CCCN1C(=O)[C@H](CCC(=O)O)NC(=O)[C@@H](NC(=O)[C@@H](NC(=O)[C@@H](NC(=O)[C@H](CCC(=O)O)NC(=O)[C@H](CO)NC(=O)CN)C(C)C)[C@@H](C)O)CSSC[C@H](NC(=O)[C@H](CCCNC(=N)N)NC3=O)C(=O)NCC(=O)N[C@@H](CO)C(=O)N[C@@H](CC(=O)O)C(=O)NCC(=O)N[C@@H](CCCCN)C(=O)N[C@@H](CO)C(=O)N[C@@H](C)C(=O)N[C@@H](C)C(=O)N2 | Chymotrypsin-C S216A | binding, competitive fluorescence polarisation | 24 h, pH 8.0, added: FITC-labelled tracer | 0.12 ± 0.01
